# Results collected from several papers.
# Every numbered part comes from another study and shows a few of its results, in no order. Positions count from the first letter of the parent shown.
# Chain of UniProt P50750 (whole entry, looked up): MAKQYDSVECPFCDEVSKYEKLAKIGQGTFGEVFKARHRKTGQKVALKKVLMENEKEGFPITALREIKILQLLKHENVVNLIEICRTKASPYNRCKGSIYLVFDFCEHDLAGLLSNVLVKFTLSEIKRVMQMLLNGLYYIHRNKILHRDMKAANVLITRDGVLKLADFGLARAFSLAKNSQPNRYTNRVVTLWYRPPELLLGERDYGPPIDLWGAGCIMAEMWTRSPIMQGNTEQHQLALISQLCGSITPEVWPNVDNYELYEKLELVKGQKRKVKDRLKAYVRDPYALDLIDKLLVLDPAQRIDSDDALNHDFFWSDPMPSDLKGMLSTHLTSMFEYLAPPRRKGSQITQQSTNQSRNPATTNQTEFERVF
# Chain of UniProt P23975 (whole entry, looked up): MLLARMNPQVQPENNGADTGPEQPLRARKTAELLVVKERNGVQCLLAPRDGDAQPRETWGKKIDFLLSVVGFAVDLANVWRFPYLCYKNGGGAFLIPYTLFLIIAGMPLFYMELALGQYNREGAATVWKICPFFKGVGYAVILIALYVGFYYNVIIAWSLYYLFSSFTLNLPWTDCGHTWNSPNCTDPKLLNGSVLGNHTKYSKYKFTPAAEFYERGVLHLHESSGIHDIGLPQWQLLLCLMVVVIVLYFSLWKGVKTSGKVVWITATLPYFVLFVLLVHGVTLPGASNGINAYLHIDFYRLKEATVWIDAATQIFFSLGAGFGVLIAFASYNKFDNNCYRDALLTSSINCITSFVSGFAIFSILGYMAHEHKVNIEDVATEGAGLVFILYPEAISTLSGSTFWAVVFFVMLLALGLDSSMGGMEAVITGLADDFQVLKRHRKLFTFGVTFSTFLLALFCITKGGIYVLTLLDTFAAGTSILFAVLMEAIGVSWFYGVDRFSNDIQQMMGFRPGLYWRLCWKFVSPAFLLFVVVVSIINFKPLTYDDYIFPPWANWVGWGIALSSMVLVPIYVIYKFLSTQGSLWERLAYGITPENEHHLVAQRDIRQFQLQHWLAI

# Study 1
# Target: UDP-N-acetylglucosamine--peptide N-acetylglucosaminyltransferase 110 kDa subunit (OGT, Homo sapiens, UniProt O15294)
# Observed: binding
# Technique: phage display NGS
# Form: peptide
# Concentration: concentration not given
# Reference: input library
# Construct (O15294 1-1046): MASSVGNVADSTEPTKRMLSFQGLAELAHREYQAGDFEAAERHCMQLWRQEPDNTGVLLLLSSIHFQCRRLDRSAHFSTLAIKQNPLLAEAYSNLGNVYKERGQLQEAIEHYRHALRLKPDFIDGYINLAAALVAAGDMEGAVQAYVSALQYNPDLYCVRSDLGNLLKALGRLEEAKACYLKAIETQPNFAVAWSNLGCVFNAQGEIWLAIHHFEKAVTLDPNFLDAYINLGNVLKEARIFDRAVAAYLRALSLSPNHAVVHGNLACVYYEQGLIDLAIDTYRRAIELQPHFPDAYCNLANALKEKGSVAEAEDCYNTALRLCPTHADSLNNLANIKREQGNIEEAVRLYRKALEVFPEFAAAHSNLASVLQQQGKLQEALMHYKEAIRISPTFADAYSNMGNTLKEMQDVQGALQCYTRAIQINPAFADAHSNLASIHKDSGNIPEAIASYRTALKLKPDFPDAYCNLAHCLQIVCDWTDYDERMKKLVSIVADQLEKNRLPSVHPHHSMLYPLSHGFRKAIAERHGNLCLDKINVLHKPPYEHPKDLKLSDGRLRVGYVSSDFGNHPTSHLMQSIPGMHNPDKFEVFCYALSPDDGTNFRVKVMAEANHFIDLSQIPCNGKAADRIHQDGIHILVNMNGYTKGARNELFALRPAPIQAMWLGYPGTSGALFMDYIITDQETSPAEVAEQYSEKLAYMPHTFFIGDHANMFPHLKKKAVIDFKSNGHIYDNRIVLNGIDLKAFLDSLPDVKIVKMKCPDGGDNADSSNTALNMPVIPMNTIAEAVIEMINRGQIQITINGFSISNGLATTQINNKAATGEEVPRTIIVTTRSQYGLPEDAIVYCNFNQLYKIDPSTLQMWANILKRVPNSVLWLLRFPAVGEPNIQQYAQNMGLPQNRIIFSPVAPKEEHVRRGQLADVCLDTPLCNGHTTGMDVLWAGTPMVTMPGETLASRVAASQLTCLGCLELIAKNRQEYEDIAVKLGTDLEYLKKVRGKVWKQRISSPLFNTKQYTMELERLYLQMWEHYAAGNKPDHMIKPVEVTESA
Sequence,enrichment fold change
DINLWMMHDHVHHVK,9.67
TAPFYPPAYFI,1.38
QHEFQRILSHHHSYS,4.57
QHSQHVHFTHRGEGH,5.95
FMHHQHVESPVHTYI,2.77
HVFHHDVVRDYHNMH,5.75
ENVVWPHYHHHSTYI,3.93
QMNYIHWWIQKDHK,2.28

# Study 2
# Target: CCNA2, cyclin fold, Cln2 fusion (human)
# Technique: yeast growth competition, sequencing
# Sample: yeast
# Setting: strong parent motif
# Reference: not given
# Reading: higher = stronger binding
# Starting sequence: viral docking peptide; TSVRRALFTGGSD; partner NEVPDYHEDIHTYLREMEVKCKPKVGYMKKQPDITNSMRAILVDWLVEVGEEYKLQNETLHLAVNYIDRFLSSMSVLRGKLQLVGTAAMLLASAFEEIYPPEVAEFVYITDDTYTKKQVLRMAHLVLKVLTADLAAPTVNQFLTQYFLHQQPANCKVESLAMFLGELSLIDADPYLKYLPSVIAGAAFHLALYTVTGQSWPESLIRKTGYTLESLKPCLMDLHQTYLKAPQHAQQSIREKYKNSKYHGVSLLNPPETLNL
Change,normalised enrichment score
TSVRRMLFTGGSD [A6M],4.49
TSVRRALKTGGSD [F8K],0.107
TSVRRAIFTGGSD [L7I],1.76
TSVRRALFTGGVD [S12V],6.22
TSVRRALFTGMSD [G11M],6.14
TSVRRAPFTGGSD [L7P],0.0874
TSVRRALFNGGSD [T9N],6.19
TSVRRAEFTGGSD [L7E],0.0995

# Further values, each from its own experiment
# Observed: cell-free assay
SMILES,target,test,conditions,measurement,result
CNC(=O)c1ccc(-c2cnn3ccc(C(=O)N(C)c4ccc(Cl)c(C(=O)OC)c4)cc23)cc1,"SLC6A2 (Homo sapiens, UniProt P23975)",,,IC50,> 30 µM
Cn1cncc1[C@@](O)(COc1ccc(C#N)cc1-c1ccc(OC(F)(F)F)cc1)c1ccc(C#N)cc1,"CDK9 (Homo sapiens, UniProt P50750)",competition with immobilised ligand,1 µM,remaining binding,100%

# Repeated from above (study 2):
Change,normalised enrichment score
TSVRRALFTGGVD [S12V],6.22
TSVRRAPFTGGSD [L7P],0.0874
TSVRRALFNGGSD [T9N],6.19
